{"data": "Results gathered from unrelated publications", "note": "A part holds a random share of what one study measured."}
{"data": "Block 1", "target": "Diamine acetyltransferase 1 (Homo sapiens, UniProt P21673)", "action": "inhibitor", "concentration": "10 µM", "relative to": "control", "Target sequence (P21673 1-171)": "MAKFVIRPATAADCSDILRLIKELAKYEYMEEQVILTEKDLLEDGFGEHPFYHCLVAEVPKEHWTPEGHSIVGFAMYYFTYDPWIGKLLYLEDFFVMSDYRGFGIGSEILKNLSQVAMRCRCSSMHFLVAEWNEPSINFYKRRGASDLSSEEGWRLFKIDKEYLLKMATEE"}
{"Compound": "COc1c(O[C@@H]2O[C@H](CO)[C@@H](O)[C@H](O)[C@H]2O)cc2occ(-c3ccc(O)cc3)c(=O)c2c1O", "remaining activity": "81.3%"}
{"Compound": "COc1ccc(-c2cc(=O)c3c(OC)c(OC)c(OC)c(OC)c3o2)cc1OC", "remaining activity": "87.3%"}
{"Compound": "COc1cc2ccc(=O)oc2cc1O", "remaining activity": "78.5%"}
{"Compound": "C=C(CCC(C(=O)O)[C@H]1[C@H](O)C[C@@]2(C)C3=CC[C@H]4C(C)(C)[C@@H](OC(C)=O)CC[C@]4(C)C3=CC[C@]12C)C(C)C (stereo partly drawn)", "remaining activity": "87.6%"}
{"Compound": "COC(=O)C=Cc1ccc(O)cc1", "remaining activity": "111%"}
{"Compound": "CC(=O)CCCC(C)CCCC(C)CCCC(C)C (stereo not drawn)", "remaining activity": "78.4%"}
{"Compound": "CC1(C)[C@@H](O[C@@H]2O[C@H](C(=O)O)[C@@H](O)[C@H](O)[C@H]2O)CC[C@]2(C)[C@H]3C(=O)C=C4[C@@H]5C[C@@](C)(C(=O)O)CC[C@]5(C)CC[C@@]4(C)[C@]3(C)CC[C@@H]12", "remaining activity": "109%"}
{"Compound": "C[C@@H]1O[C@@H](O[C@H]2[C@H](O[C@H]3CC[C@@]4(C)[C@@H](CC[C@]5(C)[C@@H]4CC=C4[C@@H]6CC(C)(C)CC[C@]6(C(=O)O[C@@H]6O[C@H](CO[C@@H]7O[C@H](CO)[C@@H](O)[C@H](O)[C@H]7O)[C@@H](O)[C@H](O)[C@H]6O)CC[C@]45C)[C@]3(C)CO)OC[C@H](O)[C@@H]2O)[C@H](O)[C@H](O)[C@H]1O", "remaining activity": "107%"}
{"Compound": "CCCCCCCCO", "remaining activity": "104%"}
{"Compound": "CSCCC(N)C(=O)O (racemic)", "remaining activity": "110%"}
{"Compound": "N[C@@H](Cc1ccccc1)C(=O)O", "remaining activity": "100%"}
{"Compound": "Cc1cc(=O)oc2cc(O)ccc12", "remaining activity": "104%"}
{"Compound": "CCCCCCCCCCCCCC(=O)O", "remaining activity": "102%"}
{"Compound": "CC1(C)CC[C@]2(C(=O)O)CC[C@]3(C)C(=CC[C@@H]4[C@@]5(C)CCC(=O)C(C)(C)[C@@H]5CC[C@]43C)[C@@H]2C1", "remaining activity": "102%"}
{"Compound": "COc1cc(CCC(=O)CC(O)CCc2ccc(O)c(OC)c2)ccc1O (stereo not drawn)", "remaining activity": "90.1%"}
{"data": "Block 2", "target": "Calcium/calmodulin-dependent protein kinase type II subunit alpha (CAMK2A, Homo sapiens, UniProt Q9UQM7)", "effect on": "enzyme activity", "action": "inhibitor", "concentration": "10 µM", "chain of UniProt Q9UQM7 (whole entry, looked up)": "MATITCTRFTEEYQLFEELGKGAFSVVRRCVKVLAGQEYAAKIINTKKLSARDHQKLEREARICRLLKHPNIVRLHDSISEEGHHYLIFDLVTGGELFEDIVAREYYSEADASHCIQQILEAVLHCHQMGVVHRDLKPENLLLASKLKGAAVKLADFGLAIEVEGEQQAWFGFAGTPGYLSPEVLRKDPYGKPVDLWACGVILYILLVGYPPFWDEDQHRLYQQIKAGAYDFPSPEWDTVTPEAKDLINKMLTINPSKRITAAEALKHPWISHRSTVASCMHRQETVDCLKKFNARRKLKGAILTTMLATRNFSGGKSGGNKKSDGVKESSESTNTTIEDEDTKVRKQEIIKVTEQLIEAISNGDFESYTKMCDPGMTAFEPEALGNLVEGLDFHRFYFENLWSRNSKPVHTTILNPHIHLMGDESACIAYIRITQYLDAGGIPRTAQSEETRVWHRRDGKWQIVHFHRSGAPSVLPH"}
{"SMILES": "CCCC(C)C(=O)O (stereo not drawn)", "inhibition [%]": 3}
{"SMILES": "CNC(=C[N+](=O)[O-])NCCSCc1csc(CN(C)C)n1", "inhibition [%]": -4}
{"SMILES": "CC(C)=CCC[C@@](C)(O)[C@H]1CC[C@]2(C)[C@@H]1[C@H](O)C[C@@H]1[C@@]3(C)CC[C@H](O[C@@H]4O[C@H](CO)[C@@H](O)[C@H](O)[C@H]4O[C@@H]4O[C@H](CO)[C@@H](O)[C@H](O)[C@H]4O[C@@H]4OC[C@@H](O)[C@H](O)[C@H]4O)C(C)(C)[C@@H]3CC[C@]12C", "inhibition [%]": -13}
{"SMILES": "N=C(N)c1ccc(OCCCCCOc2ccc(C(=N)N)cc2)cc1", "inhibition [%]": -6}
{"SMILES": "CC(=O)OCC1=C[C@H](O)[C@@H]2C(C(=O)O)=CO[C@@H](O[C@@H]3O[C@H](CO)[C@@H](O)[C@H](O)[C@H]3O)[C@H]12", "inhibition [%]": 22}
{"SMILES": "CCCCCCCCCCCCCCCCCCCO", "inhibition [%]": -42}
{"SMILES": "O=C1C[C@@H](c2ccc(O)c(O)c2)Oc2c1ccc(O[C@@H]1O[C@H](CO)[C@@H](O)[C@H](O)[C@H]1O)c2O", "inhibition [%]": 11}
{"SMILES": "C[C@@H]1O[C@@H](O[C@@H]2[C@@H](O)[C@H](O[C@H]3CC[C@]4(C)[C@H]5CC=C6[C@@H]7CC(C)(C)CC[C@]7(C(=O)O[C@@H]7O[C@H](CO)[C@@H](O)[C@H](O)[C@H]7O)CC[C@@]6(C)[C@]5(C)CC[C@H]4C3(C)C)O[C@H](C(=O)O)[C@H]2O)[C@H](O)[C@H](O)[C@H]1O", "inhibition [%]": -33}
{"SMILES": "O=C1C[C@@H](c2ccc(O)cc2)Oc2cc(O[C@@H]3O[C@H](CO)[C@@H](O)[C@H](O)[C@H]3O[C@@H]3OC[C@](O)(CO)[C@H]3O)ccc21", "inhibition [%]": 12}
{"data": "Block 3", "organism": "Sarcocystis neurona", "effect on": "parasite growth", "concentration": "10 µM", "time": "96 h", "setting": "second screen", "relative to": "untreated"}
{"Structure (SMILES)": "O=C1CC2(CCCC2)CC(=O)N1CCCCN1CCN(c2ncccn2)CC1", "log2 fold change": 0.36}
{"Structure (SMILES)": "CC(=O)Nc1ccc(CC(=O)O)cc1", "log2 fold change": 0.29}
{"Structure (SMILES)": "OC(Cn1cncn1)(Cn1cncn1)c1ccc(F)cc1F", "log2 fold change": 0.1}
{"Structure (SMILES)": "CN(C)[C@@H]1C(O)=C(C(=O)NCN2CCCC2)C(=O)[C@@]2(O)C(O)=C3C(=O)c4c(O)cccc4[C@@](C)(O)[C@H]3C[C@@H]12", "log2 fold change": 0.23}
{"Structure (SMILES)": "CC(=O)OCC(=O)NCCCOc1cccc(CN2CCCCC2)c1", "log2 fold change": 0.46}
{"Structure (SMILES)": "O=C(c1ccc(OCCN2CCCCC2)cc1)c1c(-c2ccc(O)cc2)sc2cc(O)ccc12", "log2 fold change": 0.33}
{"Structure (SMILES)": "C[C@@H](O)[C@H]1C(=O)N2C(C(=O)O)=C(S[C@@H]3CN[C@H](C(=O)N(C)C)C3)[C@H](C)[C@H]12", "log2 fold change": 0.66}
{"Structure (SMILES)": "CS(=O)(=O)c1ccc(C2=C(c3ccccc3)C(=O)OC2)cc1", "log2 fold change": 0.06}
{"Structure (SMILES)": "CCc1cccc2c3c([nH]c12)C(CC)(CC(=O)O)OCC3 (stereo not drawn)", "log2 fold change": 0.52}
{"Structure (SMILES)": "C[C@@H]1O[C@@H](OC[C@H]2O[C@@H](Oc3c(-c4ccc(O)c(O)c4)oc4cc(O)cc(O)c4c3=O)[C@H](O)[C@@H](O)[C@@H]2O)[C@H](O)[C@H](O)[C@H]1O", "log2 fold change": 0.24}
{"Structure (SMILES)": "COc1ccc2c(c1)c(CC(=O)O)c(C)n2C(=O)c1ccc(Cl)cc1", "log2 fold change": -0.08}
{"Structure (SMILES)": "COC(=O)C1=C(C)NC(C)=C(C(=O)OCC(C)C)C1c1ccccc1[N+](=O)[O-] (stereo not drawn)", "log2 fold change": 0.38}
{"Structure (SMILES)": "Cc1ccc(O)c([C@H](CCN(C(C)C)C(C)C)c2ccccc2)c1", "log2 fold change": 0.35}
{"Structure (SMILES)": "Cc1nc2n(c(=O)c1CCN1CCC(c3noc4cc(F)ccc34)CC1)CCCC2", "log2 fold change": 0.24}
{"data": "Block 4", "target": "AP2-associated protein kinase 1 (AAK1, Homo sapiens, UniProt Q2M2I8)", "effect on": "binding", "concentration": "0.1 µM", "chain of UniProt Q2M2I8 (whole entry, looked up)": "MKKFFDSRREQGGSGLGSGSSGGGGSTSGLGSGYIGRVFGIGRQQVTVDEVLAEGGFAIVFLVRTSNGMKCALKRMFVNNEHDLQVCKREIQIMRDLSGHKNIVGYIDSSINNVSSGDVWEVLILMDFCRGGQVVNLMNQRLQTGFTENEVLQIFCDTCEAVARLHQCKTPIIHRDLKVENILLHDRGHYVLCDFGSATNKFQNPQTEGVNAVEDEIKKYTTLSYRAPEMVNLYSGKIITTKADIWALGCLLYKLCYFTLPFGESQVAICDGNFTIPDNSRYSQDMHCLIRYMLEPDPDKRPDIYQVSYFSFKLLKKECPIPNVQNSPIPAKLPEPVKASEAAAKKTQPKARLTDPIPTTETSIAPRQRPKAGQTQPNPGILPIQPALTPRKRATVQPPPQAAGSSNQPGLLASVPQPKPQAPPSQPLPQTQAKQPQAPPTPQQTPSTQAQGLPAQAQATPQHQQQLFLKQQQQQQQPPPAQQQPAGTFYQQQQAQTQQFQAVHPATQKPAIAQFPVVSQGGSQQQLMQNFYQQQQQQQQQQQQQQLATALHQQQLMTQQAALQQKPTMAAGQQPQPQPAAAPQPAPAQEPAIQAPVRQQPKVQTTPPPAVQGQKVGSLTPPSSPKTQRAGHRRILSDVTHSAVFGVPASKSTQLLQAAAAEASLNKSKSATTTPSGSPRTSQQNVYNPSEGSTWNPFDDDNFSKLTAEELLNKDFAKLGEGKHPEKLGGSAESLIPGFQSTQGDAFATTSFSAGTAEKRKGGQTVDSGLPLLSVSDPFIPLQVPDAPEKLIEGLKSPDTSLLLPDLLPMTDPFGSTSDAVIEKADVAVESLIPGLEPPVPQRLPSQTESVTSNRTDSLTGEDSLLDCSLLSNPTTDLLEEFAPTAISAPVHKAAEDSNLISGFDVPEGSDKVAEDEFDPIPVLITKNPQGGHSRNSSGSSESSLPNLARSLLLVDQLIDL"}
{"Compound": "Cc1cc(Nc2nccc(C)n2)cc(-c2cnc([C@@]3(O)CC[C@H](C(=O)O)C(C)(C)C3)s2)c1", "remaining binding [%]": 100}
{"Compound": "Cc1ccc(-c2cnc([C@@]3(O)CC[C@H](C(=O)O)C(C)(C)C3)s2)cc1Nc1cccc(C(F)(F)F)n1", "remaining binding [%]": 85.7}
{"Compound": "C[C@@H]1CN(c2cc(-c3n[nH]c4ccc(OC5(C)CC5)cc34)ncn2)C[C@H](C)O1", "remaining binding [%]": 100}
{"Compound": "C[C@@H](NC(=O)Nc1cc2[nH]ncc2c(CO)n1)c1ccccc1", "remaining binding [%]": 52.5}
{"note": "Repeated from above (block 4):"}
{"Compound": "Cc1ccc(-c2cnc([C@@]3(O)CC[C@H](C(=O)O)C(C)(C)C3)s2)cc1Nc1cccc(C(F)(F)F)n1", "remaining binding [%]": 85.7}
{"Compound": "C[C@@H]1CN(c2cc(-c3n[nH]c4ccc(OC5(C)CC5)cc34)ncn2)C[C@H](C)O1", "remaining binding [%]": 100}
{"Compound": "C[C@@H](NC(=O)Nc1cc2[nH]ncc2c(CO)n1)c1ccccc1", "remaining binding [%]": 52.5}
